# Measurements pooled from the literature.
# Lines come from different studies, so protocols differ. Several values in a cell are separate wells, animals, samples, runs or records.
# PDGFRB: Platelet-derived growth factor receptor beta (PDGFRB, Homo sapiens, UniProt P09619)
# Chain of UniProt P09619 (whole entry, looked up): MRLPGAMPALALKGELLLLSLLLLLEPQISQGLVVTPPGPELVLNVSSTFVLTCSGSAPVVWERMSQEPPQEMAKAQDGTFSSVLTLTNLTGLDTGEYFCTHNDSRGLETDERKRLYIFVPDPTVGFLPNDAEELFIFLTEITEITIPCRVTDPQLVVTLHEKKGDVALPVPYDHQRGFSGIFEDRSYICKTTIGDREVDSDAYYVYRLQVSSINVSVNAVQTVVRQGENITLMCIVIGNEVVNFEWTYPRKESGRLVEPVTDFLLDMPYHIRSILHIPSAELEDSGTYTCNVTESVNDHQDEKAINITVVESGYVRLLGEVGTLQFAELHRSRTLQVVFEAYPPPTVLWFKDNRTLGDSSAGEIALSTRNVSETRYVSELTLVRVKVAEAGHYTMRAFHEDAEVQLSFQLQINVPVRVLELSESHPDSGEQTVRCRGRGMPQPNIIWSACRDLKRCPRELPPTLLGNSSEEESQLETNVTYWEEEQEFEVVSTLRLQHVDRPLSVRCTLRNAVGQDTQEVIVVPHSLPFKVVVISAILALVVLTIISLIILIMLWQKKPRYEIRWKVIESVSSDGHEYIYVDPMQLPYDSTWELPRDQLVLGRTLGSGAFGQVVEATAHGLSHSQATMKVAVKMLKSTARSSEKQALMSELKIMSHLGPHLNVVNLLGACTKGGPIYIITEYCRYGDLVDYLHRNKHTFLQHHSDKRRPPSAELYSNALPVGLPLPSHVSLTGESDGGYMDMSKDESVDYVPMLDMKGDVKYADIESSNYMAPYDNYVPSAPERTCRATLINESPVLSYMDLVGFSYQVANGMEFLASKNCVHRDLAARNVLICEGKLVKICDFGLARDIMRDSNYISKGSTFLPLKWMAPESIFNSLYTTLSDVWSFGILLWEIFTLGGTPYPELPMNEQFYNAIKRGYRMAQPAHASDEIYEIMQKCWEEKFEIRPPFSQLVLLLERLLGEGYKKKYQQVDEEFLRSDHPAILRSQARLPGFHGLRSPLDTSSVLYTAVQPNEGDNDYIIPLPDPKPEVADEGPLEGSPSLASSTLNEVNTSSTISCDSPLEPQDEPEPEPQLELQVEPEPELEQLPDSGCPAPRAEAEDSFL
SMILES,target,test,setting,scale,measurement,value
Cc1ccc(-c2c(/C=C(\C#N)C(=O)NC(C)C)n(CCCO)c3ncnc(N)c23)cc1,PDGFRB,"cell-free assay, competition with immobilised ligand",1 µM,,remaining binding,27%
C=C1CCCCCCCCCC(CO)C1=O (stereo not drawn),PDGFRB,cell-free assay,10 µM,,remaining signal,100%
COCC12C(=O)NC3C4(C(OC)CC1O)C1CC5(O)C(OC)C(O)C(OC(C)=O)(C1C5OC(=O)c1ccccc1)C3(O)C(OC)C24 (stereo not drawn),PDGFRB,"kinase activity, inhibitor, ProQinase kinase profiling",25 µM,baseline: control,remaining activity,101% and 108%
C[C@H]1CN(C(=O)c2cn(-c3ccnc(N)n3)c3cc(C#CC4(O)CCCCC4)ccc23)CCN1,PDGFRB,"enzyme activity, inhibitor, FRET",1 µM,,inhibition,0%
Cc1nc2c(F)cc(-c3nc(Nc4ccc(CNC(=O)CCCCCCC(=O)NO)cc4)ncc3F)cc2n1C(C)C,PDGFRB,"enzyme activity, inhibitor",1 µM,,inhibition,54%
Cc1cccc(O[C@H]2CCC[C@@H](C(C)CNCc3ccncc3)C2)c1 (relative stereo),PDGFRB,"enzyme activity, inhibitor",10 µM,,inhibition,-2%
C=CC(=O)Nc1cccc(-c2cnc3[nH]cc(C(=O)NC(C)(C)C)c3n2)c1,PDGFRB,"enzyme activity, inhibitor",0.1 µM,,inhibition,19%
CNC1C[S+]2CC[S+]3CC[S+](C1)[Ru-4]321([N]=C=S)[n]2c3ccc(OC)cc3c3c4c(c5cc(F)c[n+]1c5c32)C(=O)NC4=O (stereo not drawn),PDGFRB,KinomeScan,0.1 µM,baseline: untreated,remaining binding,15%
NC(=O)C[C@H]1CCc2sc3ncnc(O[C@H]4CC[C@H](N5CCOCC5)CC4)c3c21,PDGFRB,"enzyme activity, inhibitor",10 µM,,inhibition,5%
CNC(=O)C1CCN(c2cc(C)c(F)cc2NC(=O)c2ccc(-c3cc(O)ccc3C)c(C)c2)CC1,PDGFRB,"binding, competition with immobilised ligand",1 µM,,remaining binding,43%
C=CC[C@H]1OC(=O)CCNC(=O)[C@H](C)N(C)C(=O)[C@H]([C@@H](C)CC)N(C)C(=O)[C@H]([C@@H](C)CC)NC(=O)[C@@H]2[C@@H](C)CCN2C1=O,"Platelet-derived growth factor receptor beta, extracellular domain (PDGFRB, Homo sapiens, UniProt P09619)",SPR van't Hoff,"concentration not given, 25 °C",,heat capacity change,1.04 kcal/(K·mol)
O=C(Nc1ccc(Oc2ncnc3[nH]cc(-c4ccccc4)c23)c(F)c1)c1c2n(n(-c3cc(F)ccc3F)c1=O)CCCC2,PDGFRB,"enzyme activity, inhibitor",0.5 µM,,inhibition,-12%
COc1c(OCCCN2CCOCC2)ccc2c1N=C(NC(=O)c1cnc(N)nc1)N1CCN=C21,PDGFRB,"kinase activity, inhibitor",1 µM,baseline: untreated control,remaining activity,99%
COc1ccc(C(=O)/C=C/c2ccccc2-c2c[nH]c3ccc(C#N)cc23)c(O)c1,PDGFRB,"enzyme activity, inhibitor",20 µM,,inhibition,-9%
O=c1c(-c2ccc(Cl)c(CN3CCOCC3)c2)coc2cc(O)ccc12,PDGFRB,"enzyme activity, inhibitor",1 µM,,remaining activity,100%
COc1ccc(NC(=O)Nc2ccc3c(c2)C(=O)N(C(C)CO)CC(C)C(CN(C)Cc2ccc4c(c2)OCO4)O3)cc1 (stereo not drawn),PDGFRB,"binding, competition with immobilised ligand",10 µM,,remaining binding,100%
CN1CCN(Cc2ccc(NC(=O)c3cccc(C#Cc4cnc(N)c5ncccc45)c3)cc2C(F)(F)F)CC1,PDGFRB,"cell-free assay, competition with immobilised ligand",0.5 µM,,remaining binding,0%
Nc1ncc(-c2cc(-c3cnn(CC(F)(F)F)c3)ncc2F)nc1C(=O)NC1CNCC(F)C1 (stereo not drawn),PDGFRB,enzyme activity,1 µM,baseline: DMSO control,remaining activity,99.3%
COc1cc(OC)c(F)c(/C=C/c2cnc3ccn(S(=O)(=O)c4cn(CCF)cn4)c3n2)c1F,PDGFRB,,1000 nM,,inhibition,7.8%
CC(=O)N1c2ccc(-c3ccc(CNC(=O)c4cn5cc(-c6cnc(N)nc6)nc(N6CCOCC6)c5n4)cc3)cc2CC[C@@H]1C,PDGFRB,"binding, competition with immobilised ligand",10 µM,,remaining binding,53%
C=CC(=O)N1CCCC(n2c(=O)c3ncccc3n(Cc3ccc(Oc4ccccc4)cc3)c2=O)C1 (stereo not drawn),PDGFRB,"cell-free assay, competition with immobilised ligand",1 µM,,remaining binding,97%
CN1CCN(c2ccc(Nc3ncc(Cl)c(Nc4ccccc4P(C)(C)=O)n3)cc2Br)CC1,PDGFRB,"enzyme activity, inhibitor",0.1 µM,,inhibition,97%
CNC(=O)c1cnc(Nc2ccncc2)nc1-c1ccc(C)cc1,PDGFRB,"cell-free assay, competition with immobilised ligand",10 µM,,remaining binding,5.3%
C=C1C[C@]2(C(=O)OC)C=C(C(=O)Nc3cccc(C(=O)Nc4ccc(Nc5nccc(-c6cccnc6)n5)c(C)c4)c3)C(=O)[C@H]1C2,PDGFRB,"binding, competition with immobilised ligand",1 µM,,remaining binding,81%

# A few entries again:
SMILES,target,test,setting,scale,measurement,value
COc1ccc(C(=O)/C=C/c2ccccc2-c2c[nH]c3ccc(C#N)cc23)c(O)c1,PDGFRB,"enzyme activity, inhibitor",20 µM,,inhibition,-9%
